# Results of several laboratories.
# Every numbered part comes from another study and shows a few of its results, in no order.

# Set 1 — method: RNA Bind-n-Seq; molecule type: RNA; medium: in vitro; concentration: not given; relative to: input RNA pool; direction: higher = stronger binding
# Target: RING finger protein unkempt homolog, zinc fingers 1-6, GST-SBP tag (UNK, Homo sapiens, UniProt Q9C0B0, residues 30-357)
# Sequence of UniProt Q9C0B0 (30-357, looked up): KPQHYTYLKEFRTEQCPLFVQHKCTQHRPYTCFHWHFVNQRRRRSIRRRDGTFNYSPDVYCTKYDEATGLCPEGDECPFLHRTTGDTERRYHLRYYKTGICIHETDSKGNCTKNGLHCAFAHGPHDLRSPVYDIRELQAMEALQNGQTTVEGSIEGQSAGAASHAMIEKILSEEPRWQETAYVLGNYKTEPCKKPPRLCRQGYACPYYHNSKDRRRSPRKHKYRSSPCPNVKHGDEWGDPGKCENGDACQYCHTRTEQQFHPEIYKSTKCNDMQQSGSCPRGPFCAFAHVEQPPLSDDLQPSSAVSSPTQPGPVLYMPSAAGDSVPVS
# Notes: RNA with constant flanks, human and mouse sites, ends assumed
# All sequences stand within: GGGAGUUCUACAGUCCGACGAUC … CAACAGAGGAUUGAGCAUCA
Oligonucleotide,bound/input enrichment [ratio]
GAACUUCAAGCUUUACAAAUAUUACAGAAGAAAAAACAUAAAAAUUCUCAGUUAGAUAAAAAUAGUGAAAUUUGCCAGGAAGUUCAAGCUGUAUGUGAUGCCCUCGGGGUCCCCAAGUCU,3.12
ACAGCCAUUGCUUUCAAAGAGAUUAUUACUGUGUAUUCUCCCUGUUUUACAAUAUGUUUUCAUGAAGACUAUGUUACACCAGAGGCUUCUGAUUAUCAAAGUGAUAACCAGUUUUAACUG,0.107
UUUGAAGAAGGUGUGGGGAAACCUGCCAAGCAACUCCAAGAUCUGAGGAAUGCAUCUAGACUUAUUCGUGUGAAUCCUGAAAGUACAACAUCAGUGGUCUAAUGCUUGGGUCUGUUUAUA,0.111
GUCAGCAGGCCCACCCUAGAGGAGCUGGAAACCCUACACAAGUACUUUCAGCUAGAUGUCAGCCUGGCACAGCUGUAUAGCCACUGGGCUUCUGUAGACUCCCACUUCCAAAGAGUGGCC,0.225
GAUUCACUCCCUCUGGUUGAUACCCACUCAAAAAGGACACUUCUGAUUAAGACGGUUGAAACUAGAGAUGGACAGGUUAUCAACGAAACUUCUCAGCAUCACGAUGACCUUGAAUAAAAA,0.147
ACUACAGGAUGUGUAUUAAAUAAAUUGUUUCAGUUACCAACACCACCAUUGUCAAGACACCAACUAAAGCGGCUAGAAGAACACAGAUAUCAAAGUGCUGGACGGUCCCUGCUUGAGCCC,0.783
GUUUCCGCUGAGAAAAAUGCUCCCACAGAAGACGUGCAUGGUGGUGGGGACCACAGACACAUCCCGCUGUGUCAGUGACUGCUUGGCAGUGGCUUUCAUCCUUCAGCAAAUUCACACACG,0.171
UGUGAAAAUAUAUAAAUAUCACCCAAAAGGCUUUCUGCCCUAUAUUUUUAAAAUACAGAAUAGUUAUAUUUGAAGUAGCCCUGGCCCUAGUUCUAUAGGGCUUGGCUAUUUAAUAUUUUU,1.28
UAUUGUGAUAUGACAAGAGACUUAACUUAUCUUGCUCUGUCUUCCACUGUACACGCUGUAUAUAGGGGUCAAUGUGAUGCUGCUGGAGACGAGAAUAAACUGGACUAGAAUAGUGCAUUG,0.61
AAAUGUACAGAAUCUGAAGAAGAAGAAGUCACCAAAGGAAAGGAAAAUCAACUUCAGCUUAGCUGUUUUAUCAAUCAGGAAGUCAAGUAUCUUUUUACAGGACUUAAAUUGCGACUUCAG,0.152
GAAGAAAGCAAUAAGUUCUAUAAGGACAACAUUAAGGCUGGUCAGCAGGGAUUAUCAGUUGCCUUUGAUCUGGCGACACAUCGUGGCUAUGAUUCAGACAACCCUCGAGUUCGUGGUGAU,0.186

# Set 2 — method: aptamer microarray, sandwich; molecule type: DNA with 2'F-ANA; medium: in vitro; concentration: 200 nM; with: Cy3 exosite-II aptamer, 400 nM; direction: higher = stronger binding; oligonucleotide: GGTTGGTGTGGTTGG
# Target: Prothrombin, mature alpha-thrombin (F2, Homo sapiens, UniProt P00734)
# Notes: whole 15-mer aptamer, many near background
Modification,mean fluorescence intensity
2'F-ANA at 3 12 15,1380 a.u.
2'F-ANA at 2 3 4 6 7 10 11 12 14 15,154 a.u.
2'F-ANA at 1 2 3 4 6 8 10 13,54.3 a.u.
2'F-ANA at 1 2 3 5 6 7 8 9 14,96.6 a.u.
2'F-ANA at 2 3 4 5 6 9 11 12 15,125 a.u.
2'F-ANA at 1 2 3 7 14,115 a.u.
2'F-ANA at 3 4 7 9 13 14 15,265 a.u.
2'F-ANA at 3 4 6 9 10 12 15,303 a.u.
2'F-ANA at 6 7 10 11 13,156 a.u.
2'F-ANA at 1 2 3 4 6 9 12 13 14 15,66.7 a.u.
2'F-ANA at 3 4 5 8 13 14,50.2 a.u.
2'F-ANA at 2 5 6 8 9 11 12 14,52.3 a.u.
2'F-ANA at 1 3 8 9 11 12 13,474 a.u.
2'F-ANA at 2 4 6 7 8 12 15,586 a.u.
2'F-ANA at 1 3 8 10 11 12 13 14,61 a.u.
2'F-ANA at 2 3 8 10 14 15,306 a.u.
2'F-ANA at 5 10 11 12 13,73.8 a.u.
2'F-ANA at 1 2 4 5 6 7 10 11 12 13 15,50.8 a.u.
2'F-ANA at 3 4 5 7 9 11 12 14,58.4 a.u.
2'F-ANA at 1 2 3 4 5 6 8 10 11 12 14,60.1 a.u.
2'F-ANA at 2 3 4 6 7 8 9 10 13 15,211 a.u.
2'F-ANA at 1 3 4 8 9 13,133 a.u.
2'F-ANA at 4 7 9 12 13,356 a.u.
2'F-ANA at 5 7 9 11 15,66 a.u.
2'F-ANA at 1 3 4 5 6 9 14,54.5 a.u.

# Set 3 — method: protein binding microarray; molecule type: double-stranded DNA, one strand shown; medium: in vitro; concentration: not given; relative to: not given; direction: higher = stronger binding
# Target: Histone acetyltransferase KAT6A, winged helix 2, GST fusion (KAT6A, Homo sapiens, UniProt Q92794, residues 85-181)
# Notes: 8-mer, flanks averaged, mean of 2 arrays, mostly near background
# Construct (chain): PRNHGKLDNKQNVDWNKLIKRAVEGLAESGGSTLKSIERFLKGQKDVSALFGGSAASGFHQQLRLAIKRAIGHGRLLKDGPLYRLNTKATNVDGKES
Oligonucleotide,E-score
GTTGCGCA,-0.0436
CGCTCCCA,0.01
CTTTCCCA,-0.029
GTGGAGTA,-0.0622
CTGCGAGA,0.0415
ATGTACCC,-0.196
AGGTCATA,-0.141
CGCTCGAA,-0.00934
ATTGCAGC,-0.117
CAGGGCTA,-0.208
CGACACGA,0.114
CAGCACGA,-0.0125
AGCTAAGC,0.0219
CAGCAACC,0.124
ACTCATTC,-0.213
ATATGGAT,-0.0012
CAACAGTG,-0.109

# Set 4 — method: RNA Bind-n-Seq; molecule type: RNA; medium: in vitro; concentration: 365 nM; relative to: no-protein control; direction: higher = stronger binding
# Target: RNA binding protein fox-1 homolog 2, RRM domain, GST-SBP tag (RBFOX2, Homo sapiens, UniProt O43251-10, residues 100-194)
# Notes: natural RNA segment, single round, ends assumed
# All sequences stand within: GGGAGUUCUACAGUCCGACGAUC … UGGAAUUCUCGGGUGCCAA
# Residues (chain): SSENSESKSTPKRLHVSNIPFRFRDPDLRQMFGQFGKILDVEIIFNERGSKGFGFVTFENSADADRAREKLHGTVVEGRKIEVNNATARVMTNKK
Oligonucleotide,RBNS enrichment (R)
UGUUAUAUUUUUUAUAAAAAUGUUUAUUUUUAAUGAUAUGAGAAAAAUUUUGUUAGGCCACAAAAACACUGCACUGUGAACAUUUUAGAAAAGGUAUGUCAGACUGGGAU,3.34
AUAUUUCCACCUAUGGCAGGGGUACAGAGAACAUUAAAAGGACCCAUUCUGUAAAUCCUGAUGAUCGAUUUUGUCUAAGUAGCCCCACUGAGGCGUUGAGAAUGGGGCAU,0.903
GUAGCAGUGUCCUUUUCUGAGGAAGGAAGUCUUAAACCCUUUCCCCCCACCCCCUGGGAUGACUGCCUUGAUUCCCAUGGGGAACAACUUUAAAGAAAACCACCACAGCA,1.62
AAUGGCAGUACUUUAGGACACACACAAACACACAGACACACCUUUUGAUAUGUAAGCUUGACCUAAAGUCAAAGGACCUGUGUAGCAUUUCAGAUUGAGCACUUCACUAU,2.02
UGGCCAGGACUGGUAGCAACAGAGCAUGGCUGAGAAGGAGCAGCGUGCUUCUUGGUGUCUGAGCAGACAGACCCUGCCAGAGUAAACUGGCUGAGGGGAGUGUCCAUCAU,3.19
CCAGAGAAACCGGCUUUUUUUCUUAUUGCGAGCAUGUUAAAACGUUGGGAACAUGUGGGGAAUUGUAUAUUGCGCUGAAUUAACUUCUCCCGCCUCUUGUAAUGCUCUGG,3.57
CGUAUAGCAAGUUUUUUGCUCAUCAGCAGAGAGCAACAGAUGUUUUAUUGAGUGAAGCCUUAAAAAGCACACACCACACACAGCUAACUGCCAAAAUACAUUGACCGUAG,0.288
CGCUAAGGGGACACCCCUUCCCCAGGUCUUUUAUUUGUUUAAGUUAUUUUUGCACAAAUGACUCUUUUAUAUUUAAUUCGACUUCAUUGCCUCCCUUCUUAAAGCUAGCA,2.33
CAUCCCACCAGGUCCCUGGACUCACGGCCUUUCCUUCAUUUGCCAUUCACAUUGCUGCUCACAAAACAGAACUCGGUGACUUUGUUUUGAUAUAGUUUUGUGGACCAUCU,0.37
GAAUAUGUGAGGACCUGGACCGCUGGCUGCCUCAGCUGUACCUGGUUUUAAAUGCAGCUUUCUGUAGAGAUUCUACCUGCAGUCUGUUCUCUCUUGGGGUUCCACACCCA,0.567
CCACGCCUUCCCGCUCGGCGGCAAAGGUGCUGACAUCUAUGUGCUAGGCUGCCUCAUCACGCCACUGGAGUCCACACUUGAAUUUGGGCAGCUACCACGGGUCUGCCAUG,0.334
AAUAGCUCCUCUCACUCUGCCUGGAGAUACUUCCUGCCUCAGAUGAGGAGCCAGAAGAAACAGAGCCCGACUUGAAUGAACUCAGCUCAGAGUUCUAAGGACCAGCAUUC,0.458

# Repeated from above (set 3):
Oligonucleotide,E-score
GTGGAGTA,-0.0622
CTGCGAGA,0.0415
ATGTACCC,-0.196
AGGTCATA,-0.141
CGCTCGAA,-0.00934
ATTGCAGC,-0.117
CAGGGCTA,-0.208
CGACACGA,0.114
CAGCACGA,-0.0125
AGCTAAGC,0.0219
